Measurements of several laboratories.
Every numbered part comes from another study and shows a few of its results, in no order.

Sample 1 — method: aptamer microarray, sandwich; molecule type: DNA with 2'F-ANA; matrix: in vitro; concentration: 200 nM; with: Cy3 exosite-II aptamer, 400 nM; direction: higher = stronger binding; sequence: GGTTGGTGTGGTTGG
Target: Prothrombin, mature alpha-thrombin (F2, Homo sapiens, UniProt P00734)
Notes: whole 15-mer aptamer, many near background
Modification	mean fluorescence intensity [a.u.]
2'F-ANA at 2 4 7 9 11 14	94.1
2'F-ANA at 2 3 4 5 6 8 10	51
2'F-ANA at 1 2 4 7 9 10 14	43.4
2'F-ANA at 1 3 4 5 11	54.1
2'F-ANA at 1 6 7 9 11 13 14	51
2'F-ANA at 1 2 3 4 5 6 7 8 9 10 13	54.7
2'F-ANA at 1 3 5 7 8 15	75.5

Sample 2 — method: protein-binding microarray; molecule type: double-stranded DNA, one strand shown; matrix: in vitro; concentration: 2200 nM top; notes: 60-bp whole probe; with: salmon DNA 0.4 mg/ml; baseline: random background probes; direction: higher = stronger binding; all sequences stand within: GCCTAGCAC … GTCTTGATTCGCTTGACGCTGCTG
Target: Interferon regulatory factor 7, full length, phosphomimetic (IRF7, Homo sapiens, UniProt Q92985, residues 1-503, S471D/S472D/S475D/S476D/S477D/S483D/S484D/S487D)
Target sequence (chain): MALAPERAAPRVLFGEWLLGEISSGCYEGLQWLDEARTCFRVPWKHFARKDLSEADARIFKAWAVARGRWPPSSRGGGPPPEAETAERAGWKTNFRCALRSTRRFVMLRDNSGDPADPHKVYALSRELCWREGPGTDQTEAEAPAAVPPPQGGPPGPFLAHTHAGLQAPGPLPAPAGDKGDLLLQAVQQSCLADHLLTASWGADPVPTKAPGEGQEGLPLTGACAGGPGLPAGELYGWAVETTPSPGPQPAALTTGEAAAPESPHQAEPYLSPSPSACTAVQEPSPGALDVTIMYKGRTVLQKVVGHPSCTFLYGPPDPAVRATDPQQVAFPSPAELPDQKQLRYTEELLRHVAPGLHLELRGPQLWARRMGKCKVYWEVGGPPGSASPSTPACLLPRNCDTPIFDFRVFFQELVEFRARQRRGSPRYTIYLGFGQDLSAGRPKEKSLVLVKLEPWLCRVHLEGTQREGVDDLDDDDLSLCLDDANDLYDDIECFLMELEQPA
Sequence	fitted relative affinity [z-score]
GGAGAAAAATCATGAAAATAGTGCTAG	-1.42
TCATGTTCCCTCATCAGACTGTGCTAG	2.29
GACGAACTGGGGCTTCGAGACGTGCTA	-0.252
TCAACTTTAGGTTCCCAACTGTGCTAG	1.42
TTAGATCTCGGGTTTCGATTAGTGCTA	2.88
GTCGGTTTCGACACTGGGGACGTGCTA	3.83
GATGATCTCAGTCTCGAGACGTGCTAG	0.442
TTAGGACTGGACCTTCGGTTAGTGCTA	-0.281

Sample 3 — method: universal PBM; molecule type: double-stranded DNA, one strand shown; matrix: in vitro; concentration: not given; direction: higher = stronger binding
Target: Sal-like protein 4, full length isoform B (SALL4, Homo sapiens, UniProt Q9UJQ4-2, residues 1-616)
Notes: 8-mer, flanks averaged, mean of replicates
Residues (chain): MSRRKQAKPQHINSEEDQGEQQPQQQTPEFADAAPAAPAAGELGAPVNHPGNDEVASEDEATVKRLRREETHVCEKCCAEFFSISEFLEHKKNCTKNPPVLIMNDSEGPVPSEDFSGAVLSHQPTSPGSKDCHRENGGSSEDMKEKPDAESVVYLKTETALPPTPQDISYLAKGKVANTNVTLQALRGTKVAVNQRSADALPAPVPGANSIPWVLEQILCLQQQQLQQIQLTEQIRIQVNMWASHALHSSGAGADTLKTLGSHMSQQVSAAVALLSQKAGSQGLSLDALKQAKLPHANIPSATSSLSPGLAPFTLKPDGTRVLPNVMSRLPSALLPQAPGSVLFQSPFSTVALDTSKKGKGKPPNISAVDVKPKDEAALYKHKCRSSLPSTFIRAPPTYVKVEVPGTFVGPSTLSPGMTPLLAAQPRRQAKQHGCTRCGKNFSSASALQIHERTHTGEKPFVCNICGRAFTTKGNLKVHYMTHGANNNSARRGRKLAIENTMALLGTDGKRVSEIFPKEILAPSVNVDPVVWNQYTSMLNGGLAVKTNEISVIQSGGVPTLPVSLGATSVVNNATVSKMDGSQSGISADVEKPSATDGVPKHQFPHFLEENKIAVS
Sequence	E-score
ATCAAGTA	0.0935
ACTCTCTC	-0.154
ATTCTTCA	0.115
AACCATAG	0.078
ACTTGTCT	0.128

Further values, each from its own experiment
Substance	target	test	system	conditions	how to read	endpoint	result
PhoQ, residues 284 288 289 292 302 303 NLSRDF	PhoP, residues 12 14 15 18 19 SQCLL (Escherichia coli, UniProt P23836)	Sort-seq, measured: YFP reporter	E. coli	PhoQ-PhoP variant library, with: 10 µM Mg2+	baseline: high Mg2+ state, higher = stronger signaling	fold induction	9.71

Excerpt of the above (sample 1):
Modification	mean fluorescence intensity [a.u.]
2'F-ANA at 1 2 3 4 5 6 7 8 9 10 13	54.7
2'F-ANA at 2 3 4 5 6 8 10	51
